Measurements pooled from the literature.
Every numbered part comes from another study and shows a few of its results, in no order. Substitutions count along the parent as printed.

Sample 1
Target: UBE2Q2 UBC core domain (UniProt Q8WVN8)
UniProt Q8WVN8, sequence (whole entry, looked up): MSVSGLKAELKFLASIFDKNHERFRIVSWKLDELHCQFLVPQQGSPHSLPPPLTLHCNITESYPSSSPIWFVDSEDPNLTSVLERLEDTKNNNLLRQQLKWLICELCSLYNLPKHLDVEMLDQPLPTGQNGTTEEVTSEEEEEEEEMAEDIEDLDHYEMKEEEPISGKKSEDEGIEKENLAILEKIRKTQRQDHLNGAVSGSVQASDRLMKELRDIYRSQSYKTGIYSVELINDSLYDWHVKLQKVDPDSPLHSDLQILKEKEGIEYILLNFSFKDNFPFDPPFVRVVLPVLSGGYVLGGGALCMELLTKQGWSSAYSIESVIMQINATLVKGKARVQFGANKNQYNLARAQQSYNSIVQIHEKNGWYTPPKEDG
Method: yeast two-hybrid
Matrix: yeast
Notes: mostly zero background
Relative to: not given
Reading: higher = stronger interaction
Quantity: lacZ reporter activity
B1: RNF133 RING domain (UniProt Q8WVZ7); chain DEEINPNGDSCVICFERYKPNDIVRILTCKHFFHKNCIDPWILPHGTCPICKCDILKVLGIQ
B2: RBCK1 RING domain (UniProt Q9BYM8); chain SLVLNTEPAECPVCYSVLAPGEAVVLRECLHTFCRECLQGTIRNSQEAEVSCPFIDNTYSCSGKLLEREIK
B3: ZMIZ2 RING domain (UniProt Q8NF64); chain GTIPGTPGPNGEDGVEQTAIKVSLKCPITFRRIQLPARGHDCRHIQCFDLESYLQLNCERGTWRCPVCNKTALLEGLEVDQYMLGILIYIQNSDYEEITIDPTCSWK
B4: RNF19A RING domain (UniProt Q9NV58); chain ISKQIGDFIECPLCLLRHSKDRFPDIMTCHHRSCVDCLRQYLRIEISESRVNISCPECTERFNPHDIR
B5: SYTL4 RING domain (UniProt Q96C24); chain RGSQHYSDRTCARCQESLGRLSPKTNTCRGCNHLVCRDCRIQESNGTWRCKVCAKEIELKKAT
B6: MAP3K1 RING domain (UniProt Q13233); chain NSIKDEEEQMCPICLLGMLDEESLTVCEDGCRNKLHHHCMSIWAEECRRNREPLICPLCRSKWRSHDFYS
B7: UBOX5 RING domain (UniProt O94941); chain EQPGSILGPECASCKRVFSPYFKKEPVYQLPCGHLLCRPCLGEKQRSLPMTCTACQRPVASQDVLR
B1 (RNF133 RING domain): 0
B2 (RBCK1 RING domain): 0
B3 (ZMIZ2 RING domain): 0
FDGDVDPDLKCALCHKVLEDPLTTPCGHVFCAGCVLPWVVQEGSCPARCRGRLSAKELN (PDZRN3 RING domain (UniProt Q9UPQ7)): 0
KLRKLKEAMLCMVCCEEEINSTFCPCGHTVCCESCAAQLQSCPVCRSRVEHVQHVY (MYLIP RING domain (UniProt Q8WY64)): 0
AVPSGLEENLCKICMDSPIDCVLLECGHMVTCTKCGKRMNECPICRQYVIRAVHVF (RFFL RING domain (UniProt Q8WZ73)): 0
B4 (RNF19A RING domain): 0
B5 (SYTL4 RING domain): 0
B6 (MAP3K1 RING domain): 0
GSRLQEINDVCAICYHEFTTSARITPCNHYFHALCLRKWLYIQDTCPMCHQKVYIEDDIK (RNF139 RING domain (UniProt Q8WU17)): 0
B7 (UBOX5 RING domain): 0

Sample 2
Target: RING finger protein unkempt homolog, zinc fingers 1-6, GST-SBP tag (UNK, Homo sapiens, UniProt Q9C0B0, residues 30-357)
UniProt Q9C0B0, sequence (30-357, looked up): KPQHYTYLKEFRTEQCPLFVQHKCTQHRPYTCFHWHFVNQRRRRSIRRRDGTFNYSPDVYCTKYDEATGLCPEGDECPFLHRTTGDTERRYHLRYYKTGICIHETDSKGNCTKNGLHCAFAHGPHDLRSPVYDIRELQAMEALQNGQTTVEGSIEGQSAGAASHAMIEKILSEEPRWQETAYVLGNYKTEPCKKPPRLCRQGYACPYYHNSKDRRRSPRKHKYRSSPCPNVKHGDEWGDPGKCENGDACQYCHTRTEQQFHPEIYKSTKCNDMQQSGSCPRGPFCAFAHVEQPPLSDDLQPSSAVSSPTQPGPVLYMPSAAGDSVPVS
Method: RNA Bind-n-Seq
Form: RNA
Matrix: in vitro
Tested at: not given
Notes: RNA with constant flanks, human and mouse sites, ends assumed
Relative to: input RNA pool
Reading: higher = stronger binding
Quantity: bound/input enrichment
All sequences stand within: GGGAGUUCUACAGUCCGACGAUC … CAACAGAGGAUUGAGCAUCA
GGGGAGAUUGAUGCACUGAGUAAAAGAAGCAAAGAAGCAGAGGCAGCCUUCUUGACUGUGUACAAGAGACUAAUUGAUGUUCCAGAUCCGGUACCAGCCCUGGACGUCGGGCAACAGCUG: 0.457 ratio
AUAAAUACAUUUAAAUUGCUCUCAUAUGCCUCCUAUUGUAUUGAGCAUGGUGACCUGGAGCUGGCAGCAAAGUUUGUCAAUCAGCUCAAAGGGGAGUCCAGAAGAGUGGCACAGGACUGG: 0.262 ratio
UUGAUGAGCCUCCUGGGCCCCUCCAUCGAUUCCGUGGCUGUUCUGCGGGGCAUCCAGAAGGUGGCGAUGUUGGUCCAAGGGAACUGGGUGGUGAAGAGUGACAUCCUAUACCCCAAGGAC: 0.148 ratio
GGCGCGGCGCUGCAGAACUACAACAACGAGCUGGUCAAGUGCAUAGAGGAGCUGUGCCAGAAGCGGGAGGAGCUGUGCCGGCAGAUCCAGGAGGAGGAGGACGAGAAGCAGCGGCUGCAG: 0.352 ratio
AUUCGAAUAAUUGGGUUGUACAACUUAUCUCAUAAUCCCAUUAUUCAUUUGAUAUUCUGUUUUAGAAAAUUUAGGUUAAUCUUAAGAUUUAAUAAAUUUCAAAUCAUGUUAUUAUGCAAA: 1.57 ratio
AAUUUAUUUGAGACUGGAUUUUAUCACUCGGAGCUAAACCCUAUGAACAUGUGCAGUGAAGAGUCAGAGAGACCAGCAAAAAGAUUGAAAAUGGGCAUUGCCGUCCCUGAAUCCUUUAUG: 0.109 ratio
AGAACCAAGACUUUGGCAGACCUUUUGGAAUCAUUUAUCGCAGCGCUGUACAUCGACAAGGACCUGGAAUAUGUCCACACUUUCAUGAACGUCUGCUUCUUUCCCCGGCUGAAGGAGUUC: 0.229 ratio
GAUGUCAUUUCUUUUUUUUUUUUAAUAAAAAGGUUGAACUGUUUUUUUUUUUCUUUUUGGUAUUAAGUCCAUCUUGUGUUGGUACAUUGGCAGAGACAUAUGCUUUAAAAACUUAAAUAU: 0.551 ratio
GCUGACGACUUGGCGAGCAAGUUUCAGUUCAGUCGUGGCAUGCGCCGCAGUUAUGAUGCAGGGUUCAAGCUGAUGGUGGUGGAGUACGCCGAGAGCACCAACAACUGUCAGGCUGCCAAG: 0.107 ratio
CAUCGCAUGCCCAGGGGCCACUACCUGGCAUUAUCGCAUGCUGGGAUCAUUGGGGGAGGGUAGUUUGAAAUUCACCACUGUCCUUUGUUUUGGAGAUUCUUAUUUUUUAAUAAGUAAUCC: 0.165 ratio
GAAAAGAGUGGAAAACAAGGCUCUCCAGACCAAGUAAGUCCAGUUUCUGAAAUGACUUCUACUAGUCUUUACCAAGACAAACAGGAAGGGAAAAGCACAGACUUUGCACCAAUAAAAGAA: 0.45 ratio

Sample 3
Target: Histone acetyltransferase KAT6A, winged helix 1, GST fusion (KAT6A, Homo sapiens, UniProt Q92794, residues 1-85)
Method: protein binding microarray
Form: double-stranded DNA, one strand shown
Matrix: in vitro
Tested at: not given
Notes: 8-mer, flanks averaged, mean of 2 arrays, mostly near background
Relative to: not given
Reading: higher = stronger binding
Quantity: E-score
Residues (chain): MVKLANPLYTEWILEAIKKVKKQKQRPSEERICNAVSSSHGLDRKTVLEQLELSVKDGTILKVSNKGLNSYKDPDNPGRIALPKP
AGCACCAT: -0.18
ATGTTGAG: -0.0114
CACTATTC: 0.066
AAATCACC: 0.0163
GCCAGGCA: -0.0399
AGCGATTC: 0.14
GCTTCCCC: 0.112
GGGATCAA: -0.061
ACATGTAC: -0.0263
CGGCTGCA: 0.237
AGACCGTA: 0.129
CGCACTAC: 0.223
ACACTCGC: 0.105
GTCCGGAA: -0.0242
AGGGAACG: -0.196
CCACCTGA: -0.188

Sample 4
Target: CCNE2, cyclin fold, Cln2 fusion (human)
Method: yeast growth competition, sequencing
Matrix: yeast
Notes: weak parent motif
Relative to: not given
Reading: higher = stronger binding
Quantity: normalised enrichment score
Starting sequence: E2F8 docking peptide (human); FVPQRKLEVSTED; partner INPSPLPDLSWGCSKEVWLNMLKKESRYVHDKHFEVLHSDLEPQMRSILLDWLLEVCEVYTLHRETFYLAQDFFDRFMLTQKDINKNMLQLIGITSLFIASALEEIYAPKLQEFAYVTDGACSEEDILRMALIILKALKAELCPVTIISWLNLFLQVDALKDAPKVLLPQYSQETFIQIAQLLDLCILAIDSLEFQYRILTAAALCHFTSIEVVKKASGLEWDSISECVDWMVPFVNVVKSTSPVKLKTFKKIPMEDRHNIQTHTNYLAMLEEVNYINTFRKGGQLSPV
R5K V9L: -0.102
L7A: -0.273
R5K V9F: -0.073
V9A: -0.397
T11A: -0.377
V2A: -0.0325
F1A: 0.402
Q4A: -0.949

Sample 5
Target: BATF2, bZIP domain (human)
Method: DHFR protein complementation
Matrix: yeast
Notes: single substitutions, most at no-binding floor
Relative to: wild-type JUN-FOS pair
Reading: higher = stronger binding
Quantity: binding fitness
Starting sequence: JUN, bZIP domain (human); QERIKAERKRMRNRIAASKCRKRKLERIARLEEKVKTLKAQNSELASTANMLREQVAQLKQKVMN; partner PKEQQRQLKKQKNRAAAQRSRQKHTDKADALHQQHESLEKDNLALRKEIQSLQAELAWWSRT
M51A: -0.148 natural log
E44M: -0.305 natural log
K39V: -0.449 natural log
L31P: -1.38 natural log
V35E: -1.36 natural log
E44H: -0.426 natural log
K36E: -0.228 natural log
A40H: -0.351 natural log
N42P: -1.4 natural log
L31V: -0.761 natural log
R30M: -0.167 natural log
E54A: -0.464 natural log
E33V: -0.549 natural log
Q55E: -0.482 natural log
T37E: -0.135 natural log
K34S: -0.184 natural log
L38A: -0.352 natural log
L45K: -1.51 natural log
L45A: -1.38 natural log
Q41C: -1.53 natural log
L38Y: -1.41 natural log
A40V: -0.337 natural log
E33G: -0.624 natural log
K36H: -0.326 natural log
K39P: -1.28 natural log

Sample 6
Target: Prothrombin, mature alpha-thrombin (F2, Homo sapiens, UniProt P00734)
Method: aptamer microarray, sandwich
Form: DNA with 2'F-ANA
Matrix: in vitro
Tested at: 200 nM
Notes: whole 15-mer aptamer, many near background
With: Cy3 exosite-II aptamer, 400 nM
Reading: higher = stronger binding
Quantity: mean fluorescence intensity
Oligonucleotide: GGTTGGTGTGGTTGG
2'F-ANA at 3 5 6 8 10 11 12 13 14: 54.2 a.u.
2'F-ANA at 2 4 6 7 10 13: 68.1 a.u.
2'F-ANA at 1 3 6 7 9 10 11 12 13: 81.4 a.u.
2'F-ANA at 1 2 3 4 5 6 7 8 10 12 15: 50.4 a.u.
2'F-ANA at 2 3 4 5 7 11 12: 159 a.u.
2'F-ANA at 2 3 4 5 8 9 11 12 15: 155 a.u.
2'F-ANA at 2 8 9 10 11 14: 80.7 a.u.
2'F-ANA at 2 5 6 7 8 9 10 11 13: 49.4 a.u.
2'F-ANA at 1 3 4 8 10 11 12 14: 53.1 a.u.
2'F-ANA at 1 2 4 6 7 8 9 11 12: 238 a.u.
2'F-ANA at 1 2 5 6 7 11 12 13: 68.2 a.u.
2'F-ANA at 1 2 3 6 9 10 11: 59.6 a.u.
2'F-ANA at 2 4 6 7 9 11 13: 151 a.u.
2'F-ANA at 4 6 8 9 10 11 12 15: 90.1 a.u.
2'F-ANA at 1 3 6 9 11 12: 371 a.u.
2'F-ANA at 1 2 3 4 5 8 10 13 15: 49.6 a.u.
2'F-ANA at 2 3 11 12 13 14 15: 395 a.u.
2'F-ANA at 1 4 7 11 15: 111 a.u.
2'F-ANA at 1 3 5 6 8 14 15: 47.1 a.u.
2'F-ANA at 3 5 6 9 12 14 15: 58.5 a.u.
2'F-ANA at 2 4 5 6 8 9 11 13 15: 52 a.u.
2'F-ANA at 1 3 4 5 6 7 9 11 13 14: 48.3 a.u.

Excerpt of the above (sample 1):
B4 (RNF19A RING domain): 0
KLRKLKEAMLCMVCCEEEINSTFCPCGHTVCCESCAAQLQSCPVCRSRVEHVQHVY (MYLIP RING domain (UniProt Q8WY64)): 0
B5 (SYTL4 RING domain): 0
B3 (ZMIZ2 RING domain): 0
B1 (RNF133 RING domain): 0
FDGDVDPDLKCALCHKVLEDPLTTPCGHVFCAGCVLPWVVQEGSCPARCRGRLSAKELN (PDZRN3 RING domain (UniProt Q9UPQ7)): 0
B2 (RBCK1 RING domain): 0
B7 (UBOX5 RING domain): 0
AVPSGLEENLCKICMDSPIDCVLLECGHMVTCTKCGKRMNECPICRQYVIRAVHVF (RFFL RING domain (UniProt Q8WZ73)): 0
B6 (MAP3K1 RING domain): 0
GSRLQEINDVCAICYHEFTTSARITPCNHYFHALCLRKWLYIQDTCPMCHQKVYIEDDIK (RNF139 RING domain (UniProt Q8WU17)): 0
